Measured values from different studies.
Lines come from different studies, so protocols differ. Numbers after ± are the reported error.
UniProt Q14416, sequence (whole entry, looked up): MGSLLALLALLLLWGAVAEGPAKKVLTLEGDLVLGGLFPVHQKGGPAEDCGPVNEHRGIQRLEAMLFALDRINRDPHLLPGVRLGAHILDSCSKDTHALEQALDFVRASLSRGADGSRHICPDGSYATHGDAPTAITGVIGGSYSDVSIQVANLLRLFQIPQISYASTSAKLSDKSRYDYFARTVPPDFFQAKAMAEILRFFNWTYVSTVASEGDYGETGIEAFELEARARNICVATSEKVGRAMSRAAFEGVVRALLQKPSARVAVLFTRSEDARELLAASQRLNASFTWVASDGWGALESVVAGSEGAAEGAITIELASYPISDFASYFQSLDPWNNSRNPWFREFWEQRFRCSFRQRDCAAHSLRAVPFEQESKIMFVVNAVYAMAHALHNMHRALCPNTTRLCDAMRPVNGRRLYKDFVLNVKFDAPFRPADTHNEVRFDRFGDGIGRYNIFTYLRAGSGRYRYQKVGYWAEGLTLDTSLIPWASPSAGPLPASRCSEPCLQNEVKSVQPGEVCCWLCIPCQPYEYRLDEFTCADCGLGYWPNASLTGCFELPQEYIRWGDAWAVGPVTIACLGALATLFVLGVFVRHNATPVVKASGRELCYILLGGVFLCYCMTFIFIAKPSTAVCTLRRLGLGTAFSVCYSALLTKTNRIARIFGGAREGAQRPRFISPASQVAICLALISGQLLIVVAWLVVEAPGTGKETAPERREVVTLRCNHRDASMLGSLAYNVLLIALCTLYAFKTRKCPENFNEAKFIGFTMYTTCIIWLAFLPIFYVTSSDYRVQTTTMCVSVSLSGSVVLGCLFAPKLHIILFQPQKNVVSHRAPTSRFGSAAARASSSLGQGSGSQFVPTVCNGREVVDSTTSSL

| Structure (SMILES) | tested on | assay | system | setting | scale | measurement | value |
| --- | --- | --- | --- | --- | --- | --- | --- |
| Oc1ccccc1C1=NN(c2ccccc2)C(c2cccs2)C1 (centres unmarked) | MCF7 | cell viability, MTT | – | 72 h | – | EC50 | > 500 µM |
| NCCCN1CC(=O)N(Cc2ccccc2)CC(=O)N(CCCN)CC(=O)N(Cc2ccccc2)CC(=O)N(CCCN)CC(=O)N(Cc2ccccc2)CC1=O | – | X-ray reflectivity | DPPG monolayer headgroups | – | – | extra electrons per lipid | 61 ± 5 |
| Oc1ccccc1C1=NN(c2ccccc2)C(c2ccc(F)cc2)C1 (centres unmarked) | MCF7 | cell viability, MTT | – | 72 h | – | EC50 | > 500 µM |
| NCCCN1CC(=O)N(CC(c2ccccc2)c2ccccc2)CC(=O)N(CCCN)CC(=O)N(CC(c2ccccc2)c2ccccc2)CC(=O)N(CCCN)CC(=O)N(CC(c2ccccc2)c2ccccc2)CC1=O | – | epifluorescence microscopy | DPPG monolayer | – | – | time to monolayer disruption | < 5 min |
| O=C(O)COc1ccc(Br)cc1/C=N/NC(=O)c1ccccc1 | – | – | mouse, PTZ-induced seizures | oral, 20 mg/kg | relative to: valproic acid 300 mg/kg | relative protection | 100% |
| O=C[C@H](C[C@@H]1CCNC1=O)NC(=O)[C@H](CC1CCCCC1)NS(=O)(=O)c1cccc(Cl)c1 | feline coronavirus | viral replication | CRFK, FIPV-1146 | 36 h | – | EC50 | 0.36 ± 0.12 µM |
| CCN(CC)c1ccc(C2CC(c3ccccc3O)=NN2c2ccccc2)cc1 (centres unmarked) | MCF7 | cell viability, MTT | – | 72 h | – | EC50 | 250 ± 0.09 µM |
| COc1ccc(CNc2ccc(-c3ccn4c(CC5CC5)nnc4c3C(F)(F)F)cc2F)cn1 | – | – | male Sprague Dawley rat, plasma | subcutaneous, 10 mg/kg, 1 h, 20% HP-β-CD vehicle pH 3 | – | plasma concentration | 2010 ng/mL |
| CC(C)C[C@H](NC(=O)[C@@H](NC(=O)[C@H](CCCNC(=N)N)NS(=O)(=O)Cc1ccccc1)C(C)C)[C@@H](O)CC(=O)NCCc1ccccc1 | Plasmodium falciparum | parasite growth | 3D7 | 72 h, blood stage | – | EC50 | 7.44 µM |
| NCCCN1CC(=O)N(Cc2ccccc2)CC(=O)N(CCCN)CC(=O)N(Cc2ccccc2)CC(=O)N(CCCN)CC(=O)N(Cc2ccccc2)CC(=O)N(CCCN)CC(=O)N(Cc2ccccc2)CC(=O)N(CCCN)CC(=O)N(Cc2ccccc2)CC1=O | – | X-ray reflectivity | DPPG monolayer headgroups | – | – | extra electrons per lipid | 134 ± 7 |
| Oc1ccccc1C1=NN(c2ccccc2)C(c2cccc(C(F)(F)F)c2)C1 (centres unmarked) | MCF7 | cell viability, MTT | – | 72 h | – | EC50 | > 500 µM |
| CC(C)C[C@@H]1NC(=O)[C@H](CCCN)NC(=O)[C@H](C(C)C)NC(=O)[C@@H]2CCCN2C(=O)[C@@H](Cc2ccccc2)NC(=O)[C@H](CC(C)C)NC(=O)[C@H](CCCN)NC(=O)[C@H](C(C)C)NC(=O)[C@@H]2CCCN2C(=O)[C@@H](Cc2ccccc2)NC1=O | – | X-ray reflectivity | DPPG monolayer tails | – | – | extra electrons per lipid | 34 ± 3 |
| Cc1nc(C#N)cnc1Cl | Cellular tumor antigen p53, DNA-binding domain (TP53, Homo sapiens, UniProt P04637, M133L/N239Y/N268D/V203A/Y220C) | differential scanning fluorimetry | – | 1 mM, 10 min, 20 °C | – | ΔTm | 1.43 °C |
| O=C(O)COc1ccc(Br)cc1C=NNC(=O)Cc1ccccc1 (mixture of isomers) | – | ELISA | mouse, pilocarpine epilepsy model, hippocampus | oral, 20 mg/kg | relative to: pilocarpine group | IL-6 level reduction | 63% |
| CN(C)c1ccc(C2CC(c3ccccc3O)=NN2c2ccccc2)cc1 (centres unmarked) | MCF7 | cell viability, MTT | – | 72 h | – | EC50 | > 500 µM |
| O=C(O)COc1ccccc1/C=N/NC(=O)CNc1ccc(Cl)cc1 | – | Racine scale 0-5 | male mice, pilocarpine-induced seizures | oral, 20 mg/kg, 1 h after pilocarpine, unit not given, added: pilocarpine 300 mg/kg i.p. | higher = more severe | seizure severity | 3.2 ± 0.63 |
| O=C(Nc1nc2ccc(-c3ccc(O)cc3)cn2n1)C1CCCCC1 | Cyclin-dependent kinase 2, with cyclin A (CDK2, Homo sapiens, UniProt P24941) | enzyme activity, inhibitor | – | – | – | IC50 | 0.86 µM |
| NCCCN1CC(=O)N(Cc2cc(C(F)(F)F)cc(C(F)(F)F)c2)CC(=O)N(CCCN)CC(=O)N(Cc2cc(C(F)(F)F)cc(C(F)(F)F)c2)CC(=O)N(CCCN)CC(=O)N(Cc2cc(C(F)(F)F)cc(C(F)(F)F)c2)CC1=O | – | X-ray reflectivity | DPPG monolayer headgroups | – | – | extra electrons per lipid | 188 ± 8 |
| O=C[C@H](C[C@@H]1CCNC1=O)NC(=O)[C@H](CC1CCCCC1)NC(=O)OCc1ccccc1 | feline coronavirus | viral replication | CRFK, FIPV-1146 | 36 h | – | EC50 | 0.07 ± 0.06 µM |
| CC[C@H](C)[C@@H]1NC(=O)[C@H](CC(C)C)NC(=O)[C@H](Cc2ccccc2)NC(=O)[C@H](Cc2ccccc2)NC(=O)[C@@H]2CCCN2C(=O)[C@@H]2CCCN2C(=O)[C@H](C(C)C)NC(=O)[C@H](CC(C)C)NC(=O)[C@H]([C@@H](C)CC)NC1=O | SK-BR-3 | LDH release | – | 400 µg/mL, 48 h | – | cytotoxicity | 45% |
| Oc1ccccc1C1=NN(c2ccccc2)C(c2ccccc2C(F)(F)F)C1 (centres unmarked) | HeLa | cell viability, MTT | – | 72 h | – | EC50 | > 500 µM |
| Cc1ccc(C(=O)N/N=C/c2cc(Br)ccc2OCC(=O)O)cc1 | – | – | mouse, pilocarpine-induced seizures | oral, 20 mg/kg, added: pilocarpine 300 mg/kg i.p. | – | latency to forelimb clonus | 13.8 ± 0.49 min |
| Cc1ccc(Oc2ccc(-c3ccn4c(CC5CC5)nnc4c3C(F)(F)F)cc2F)c(C)n1 | GRM2 (Homo sapiens, UniProt Q14416) | agonist | – | no glutamate | – | Emax | 101% |
| Oc1ccccc1C1=NN(c2ccccc2)C(c2ccc(C(F)(F)F)cc2)C1 (centres unmarked) | HeLa | cell growth or viability, MTT | – | 72 h | – | EC50 | > 500 µM |
| O=C1Nc2ccc(S(=O)(=O)Nc3ccccc3)cc2C1=C1CCCC1 | RAW264.7 | refers to: TNF-α | – | concentration not given, added: LPS 100 ng/mL, 24 h | – | mRNA level | decreased |
| CC(C)C[C@H](NC(=O)OCc1cccc(Cl)c1)C(=O)N[C@H](C=O)C[C@@H]1CCNC1=O | feline coronavirus | viral replication | CRFK, FIPV-1146 | 36 h | – | EC50 | 0.04 ± 0.01 µM |

Excerpt of the above:
| Structure (SMILES) | tested on | assay | system | setting | scale | measurement | value |
| --- | --- | --- | --- | --- | --- | --- | --- |
| O=C(Nc1nc2ccc(-c3ccc(O)cc3)cn2n1)C1CCCCC1 | Cyclin-dependent kinase 2, with cyclin A (CDK2, Homo sapiens, UniProt P24941) | enzyme activity, inhibitor | – | – | – | IC50 | 0.86 µM |
| NCCCN1CC(=O)N(Cc2cc(C(F)(F)F)cc(C(F)(F)F)c2)CC(=O)N(CCCN)CC(=O)N(Cc2cc(C(F)(F)F)cc(C(F)(F)F)c2)CC(=O)N(CCCN)CC(=O)N(Cc2cc(C(F)(F)F)cc(C(F)(F)F)c2)CC1=O | – | X-ray reflectivity | DPPG monolayer headgroups | – | – | extra electrons per lipid | 188 ± 8 |
| O=C[C@H](C[C@@H]1CCNC1=O)NC(=O)[C@H](CC1CCCCC1)NC(=O)OCc1ccccc1 | feline coronavirus | viral replication | CRFK, FIPV-1146 | 36 h | – | EC50 | 0.07 ± 0.06 µM |
| CC[C@H](C)[C@@H]1NC(=O)[C@H](CC(C)C)NC(=O)[C@H](Cc2ccccc2)NC(=O)[C@H](Cc2ccccc2)NC(=O)[C@@H]2CCCN2C(=O)[C@@H]2CCCN2C(=O)[C@H](C(C)C)NC(=O)[C@H](CC(C)C)NC(=O)[C@H]([C@@H](C)CC)NC1=O | SK-BR-3 | LDH release | – | 400 µg/mL, 48 h | – | cytotoxicity | 45% |
